Measurements gathered from unrelated publications.
Protocols differ between the studies behind these lines.
Route: oral

Compound	test system	conditions	scale	endpoint	value
CCS(=O)(=O)N1CC(CC#N)(n2cc(-c3ncnc4[nH]ccc34)cn2)C1	healthy Chinese human subjects, plasma	2 mg, single dose, mean	–	AUC(0-24)	133 ng·h/mL
COc1ccc(-c2c(Nc3ccccn3)[nH]c3c(C4=CCCCC4)c(-c4ccccc4)nn3c2=O)cc1	human, plasma	200 mg twice daily, cycle 1 day 15, multiple dosing, geometric mean	–	AUC(0-24) at steady state	244000 ng·h/mL
C=CC(=O)N1CCC(CNc2ncnc(N)c2-c2ccc(Oc3ccccc3)cc2)CC1	healthy male human, plasma	75 mg	baseline: compound over total radioactivity	AUC(0-24) ratio	13%
O=c1[nH]c(=O)c2c[nH]nc2[nH]1	human, male, plasma	10 mg, added: allopurinol 300 mg	baseline: combination over alone	AUC(0-24) ratio	61.8%
O=c1[nH]c(=O)c(Cc2cccc(C(F)(F)F)c2)c([C@H]2CC[C@H](c3ccccc3)CC2)[nH]1	human, plasma	450 mg once daily, day 1, geometric mean	–	AUC(0-24)	2940 ng·h/mL
CC(C)(Sc1ccncc1-c1ccc(C#N)c2ccccc12)C(=O)O	human, male, plasma	10 mg, added: allopurinol 300 mg	baseline: combination over alone	AUC(0-24) ratio	95.9%
O=C(c1ccc(F)c(F)c1Nc1ccc(I)cc1F)N1CC(O)([C@@H]2CCCCN2)C1	human, expansion cohort, plasma	1.0 mg/kg, geometric mean	–	AUC(0-24) at steady state	1400 ng·h/mL
COc1cccc(-c2ccc(NC(=O)C3=C(C(=O)O)CCC3)c(F)c2)c1	male healthy human, plasma	50 mg daily, day 13-14, all subjects	baseline: day 0-1	AUC(0-24) accumulation ratio	2.05
CC(C)(Sc1ccncc1-c1ccc(C#N)c2ccccc12)C(=O)O	human, male, Japanese, plasma	10 mg, day 6, fed, single dose	–	AUC(0-24)	195 ng·h/mL
CC(C)[C@@H](CS(=O)(=O)C(C)C)N1C(=O)[C@@](C)(CC(=O)O)C[C@H](c2cccc(Cl)c2)[C@H]1c1ccc(Cl)cc1	healthy human	60 mg single dose, new tablet, fasted	–	AUC(0-24)	2180 ng·h/mL
CC#C[C@]1(O)CC[C@H]2[C@@H]3CCC4=CC(=O)CCC4=C3[C@@H](c3ccc(N(C)C)cc3)C[C@@]21C	human, both sexes, plasma	600 mg, day 17, added: ketoconazole	baseline: 1200 mg alone over reference	AUC(0-24) geometric mean ratio	87%

For quick reference, copied from above:
Compound	test system	conditions	scale	endpoint	value
C=CC(=O)N1CCC(CNc2ncnc(N)c2-c2ccc(Oc3ccccc3)cc2)CC1	healthy male human, plasma	75 mg	baseline: compound over total radioactivity	AUC(0-24) ratio	13%
